Assay results gathered from unrelated publications.
Each line is one published result; not all experiments were run side by side.
Organism: Staphylococcus aureus

Structure (SMILES)	assay	system	conditions	MIC
CC[C@H](C)[C@H](NC(=O)[C@H](CC(C)C)NC(=O)[C@@H](NC(=O)[C@H](CCCNC(=N)N)NC(=O)[C@H](CCCNC(=N)N)NC(=O)[C@H](CCCNC(=N)N)NC(=O)[C@@H](N)CCCNC(=N)N)[C@@H](C)CC)C(=O)N[C@@H](CCCNC(=N)N)C(=O)N[C@@H](CCCNC(=N)N)C(=O)N[C@H](C(=O)N[C@@H](CC(C)C)C(=O)N[C@@H](CCCNC(=N)N)C(=O)N[C@@H](CC(C)C)C(=O)N[C@@H](CCCNC(=N)N)C(=O)N[C@@H](CO)C(=O)N[C@@H](CO)C(=O)N[C@@H](C)C(=O)N[C@@H](Cc1ccc(O)cc1)C(N)=O)C(C)C	broth microdilution	–	24 h, 37 °C	32 µM
CC[C@H](C)[C@H](NC(=O)[C@H](Cc1ccc(O)cc1)NC(=O)[C@@H](NC(=O)[C@H](Cc1c[nH]c2ccccc12)NC(=O)[C@@H]1CCCN1C(=O)[C@@H](NC(=O)[C@H](C)N)[C@@H](C)CC)[C@@H](C)CC)C(=O)N[C@@H](Cc1ccc(O)cc1)C(=O)N[C@@H](CCCNC(=N)N)C(=O)N[C@@H](CC(C)C)C(=O)N[C@@H](CC(C)C)C(=O)N[C@@H](CCCNC(=N)N)C(=O)N[C@@H](CCCCN)C(=O)NCC(=O)O	broth microdilution	ATCC 6051	18 h, 37 °C	0.94 µM
CCCCCCC#Cc1cncc(-c2nnc(SCc3ccc(Cl)cc3)n2CCCN)c1	broth microdilution	Mu50 MRSA VISA	18 to 24 h, 37 °C	4 µg/mL
CC[C@H](C)[C@H](NC(=O)[C@H](CC(C)C)NC(=O)[C@H](CCCNC(=N)N)NC(=O)[C@@H](N)CCCNC(=N)N)C(=O)N[C@@H](CCCNC(=N)N)C(=O)N[C@@H](CCCCN)C(=O)N[C@@H](CC(C)C)C(=O)N[C@@H](CCCCN)C(=O)NCC(=O)N[C@@H](CC(C)C)C(=O)N[C@@H](CCCCN)C(=O)N[C@@H](CCCCN)C(=O)N[C@@H](Cc1ccc(O)cc1)C(=O)N[C@@H](CC(C)C)C(=O)N[C@@H](Cc1ccc(O)cc1)C(=O)N[C@@H](Cc1ccccc1)C(=O)N[C@@H](CCCCN)C(=O)N[C@@H](CC(C)C)C(=O)N[C@@H](CCC(N)=O)C(=O)N[C@@H](CC(C)C)C(=O)N[C@@H](CC(C)C)C(=O)N[C@@H](CCCCN)C(=O)N[C@@H](CCCCN)C(N)=O	broth microdilution	KCTC 1621, Mueller-Hinton broth	with: FeCl3 4 µM	16 µM
CC[C@H](C)[C@H](N)C(=O)N[C@@H](CC(C)C)C(=O)NCC(=O)N[C@@H](CCC(=O)O)C(=O)N[C@H](C(=O)N[C@@H](Cc1c[nH]c2ccccc12)C(=O)N[C@@H](CCCCN)C(=O)NCC(=O)N[C@H](C(=O)N[C@@H](CCCCN)C(=O)N[C@@H](CC(=O)O)C(=O)N[C@H](C(=O)N[C@@H](CC(C)C)C(N)=O)[C@@H](C)CC)[C@@H](C)CC)[C@@H](C)CC	broth microdilution	ATCC 25923	concentration not given, with: BSA	> 100 µM
CC[C@H](C)[C@H](NC(=O)CN)C(=O)N[C@@H](C)C(=O)N[C@@H](CC(=O)O)C(=O)N[C@@H](C)C(=O)N[C@H](C(=O)N[C@@H](CCCCN)C(=O)N[C@@H](CCCCN)C(=O)N[C@H](C(=O)N[C@@H](C)C(=O)N[C@@H](CCCCN)C(=O)N[C@@H](C)C(=O)N[C@@H](CC(C)C)C(=O)NCC(N)=O)[C@@H](C)CC)[C@@H](C)CC	–	ATCC 29213, Mueller-Hinton broth	12 h, 37 °C	8 µg/mL
CC[C@H](C)[C@H](NC(=O)[C@H](CC(C)C)NC(=O)[C@H](CCCNC(=N)N)NC(=O)[C@@H](N)CCCNC(=N)N)C(=O)N[C@@H](CCCNC(=N)N)C(=O)N[C@@H](CCCCN)C(=O)N[C@@H](CC(C)C)C(=O)N[C@@H](CCCCN)C(=O)NCC(=O)N1CCC[C@H]1C(=O)N[C@@H](CCCCN)C(=O)N[C@H](C(=O)N[C@@H](Cc1ccc(O)cc1)C(=O)N[C@@H](CC(C)C)C(=O)N[C@@H](Cc1ccc(O)cc1)C(=O)N[C@@H](Cc1ccccc1)C(=O)N[C@@H](CCCCN)C(=O)N[C@@H](CC(C)C)C(=O)N[C@@H](CCC(N)=O)C(=O)N[C@@H](CC(C)C)C(=O)N[C@@H](CC(C)C)C(=O)N[C@@H](CCCCN)C(=O)N[C@@H](CCCCN)C(N)=O)[C@@H](C)CC	–	CCARM 3090, methicillin-resistant, Mueller-Hinton broth	24 h	16 µM
Cc1ccc2[nH]c3c(c2c1)CCCC3NCCc1ccc(Br)cc1 (stereo not drawn)	broth microdilution	SA113 ΔtarO	–	4 µg/mL
CC[C@H](C)[C@H](NC(=O)[C@H](CC(C)C)NC(=O)[C@H](CCCCN)NC(=O)[C@@H](NC(=O)[C@H](C)NC(=O)[C@H](CCC(=O)O)NC(=O)[C@H](Cc1c[nH]cn1)NC(=O)[C@@H](NC(=O)[C@H](CCCCN)NC(=O)[C@H](CCC(N)=O)NC(=O)[C@H](Cc1ccccc1)NC(=O)[C@@H](NC(=O)[C@H](CCCCN)NC(=O)[C@@H](N)CCCCN)C(C)C)[C@@H](C)CC)[C@@H](C)CC)C(N)=O	CLSI broth microdilution	ATCC 25923	18 h, 37 °C	32 µM
CCCCCCCCCCCCCCNC(=O)CP(=O)(O)O	–	ATCC 33591 methicillin-resistant	–	50 µg/mL
C/C(=C\C(=O)OCCCCCCCCC(=O)O)C[C@@H]1OC[C@H](C[C@@H]2O[C@H]2[C@@H](C)[C@H](C)O)[C@@H](O)[C@H]1O	–	CRB, PBP4 deletion	–	2 µg/mL
CN[C@H](CC(C)C)C(=O)N[C@H]1C(=O)N[C@@H](CC(N)=O)C(=O)N[C@H]2C(=O)N[C@H]3C(=O)N[C@H](C(=O)N[C@H](C(=O)O)c4cc(O)cc(O)c4-c4cc3ccc4O)[C@H](O)c3ccc(c(Cl)c3)Oc3cc2cc(c3O[C@@H]2O[C@H](CO)[C@@H](O)[C@H](O)[C@H]2O[C@H]2C[C@](C)(N)[C@H](O)[C@H](C)O2)Oc2ccc(cc2Cl)[C@H]1O	–	MRSA 44	16 h	0.3 µM

Some of these lines once more:
Structure (SMILES)	assay	system	conditions	MIC
CC[C@H](C)[C@H](NC(=O)[C@H](CC(C)C)NC(=O)[C@@H](NC(=O)[C@H](CCCNC(=N)N)NC(=O)[C@H](CCCNC(=N)N)NC(=O)[C@H](CCCNC(=N)N)NC(=O)[C@@H](N)CCCNC(=N)N)[C@@H](C)CC)C(=O)N[C@@H](CCCNC(=N)N)C(=O)N[C@@H](CCCNC(=N)N)C(=O)N[C@H](C(=O)N[C@@H](CC(C)C)C(=O)N[C@@H](CCCNC(=N)N)C(=O)N[C@@H](CC(C)C)C(=O)N[C@@H](CCCNC(=N)N)C(=O)N[C@@H](CO)C(=O)N[C@@H](CO)C(=O)N[C@@H](C)C(=O)N[C@@H](Cc1ccc(O)cc1)C(N)=O)C(C)C	broth microdilution	–	24 h, 37 °C	32 µM
